Results of several laboratories.
Compare with care: the assays were run in different laboratories. ± gives the spread as reported.

O=C(O)CC[C@H](NC(=O)O[C@@H](CCCCNC(=O)c1ccc([18F])cc1)C(=O)O)C(=O)O
tissue uptake (mouse, PC-3 PIP/flu xenografts, bladder; 90 min): 2.11 ± 1.21 %ID/g

COc1cc2ncnc(Oc3cccc(N[11C](=O)Nc4cc(C(C)(C)C(F)(F)F)on4)c3)c2cc1OC
tissue uptake (Balb/c nude mouse, female, A375 melanoma xenograft, large intestine; 6.6 MBq, 60 min): 3.44 ± 0.22 %ID/g

CN[C@](C)(C[18F])C(=O)O
tissue uptake (SCID mouse SK-OV-3 xenograft, tumour; 30 min post injection): 14 ± 3.1 %ID/g

N=C(N)NCc1ccc(C(=O)NCCCC[C@H](NC(=O)N[C@@H](CCC(=O)O)C(=O)O)C(=O)O)cc1[131I]
tissue uptake (SCID mouse, PC-3 xenografts, bone; 2 h): 0.31 ± 0.04 %ID/g

COC(=O)C[C@](O)(CCCC(C)(C)OC(C)=O)C(=O)O[C@@H]1C(OC)=C[C@]23CCCN2CCc2cc4c(cc2[C@H]13)OCO4
tissue concentration (CD1 mouse, liver; oral, 1 mg/kg, 8 h, below quantification limit 1.00 ng/mL): not detected

N=C(N)NCc1ccc(C(=O)NCCCC[C@H](NC(=O)CCCCCCC(=O)NCCCC[C@H](NC(=O)N[C@@H](CCC(=O)O)C(=O)O)C(=O)O)C(=O)O)cc1[131I]
tissue uptake (SCID mouse, PC-3 xenografts, liver; 2 h): 3.48 ± 2.35 %ID/g

CC[C@H](C)[C@H](NC(=O)[C@@H](Cc1c[nH]c2ccccc12)NC(=O)[C@@H]1CCCN1C(=O)[C@H](CCCCN)NC(=O)[C@H](CCCCN)NC(=O)CCNC(=O)CCNC(=O)CN1CCN(CC(=O)O)CCN(CC(=O)O)CCN(CC(=O)O)CC1)C(=O)N[C@@H](C[Si](C)(C)C)C(=O)O [gallium-68 labelled]
tissue uptake (mouse, HT-29 xenograft, nude, kidneys; 90 min, ex vivo biodistribution, unblocked): 30.1 ± 18.4 %ID/g

N=C(N)NCc1ccc(C(=O)NCCCC[C@H](NC(=O)N[C@@H](CCC(=O)O)C(=O)O)C(=O)O)cc1[211At]
tissue uptake (SCID mouse, PC-3 xenografts, thyroid; 21 h): 0.88 ± 0.13 %ID/g

C=Cc1cc(O)cc2nc(-c3ccc(O)c([76Br])c3)oc12
tissue uptake (female C57BL/6 mouse, blood; 6 h, high dose): 0.09 ± 0.01 %ID/g
